Published values collected from several papers.
Parts stem from different laboratories: compare values within a part only.

Series 1
Target: Replicase polyprotein 1ab, main protease (rep, Severe acute respiratory syndrome coronavirus 2, UniProt P0DTD1)
Effect on: enzyme activity
Action: inhibitor
Tested at: 20 µM
Notes: primary screen
SMILES	inhibition [%]
Cc1ccsc1C(=CCCN1CCC[C@@H](C(=O)O)C1)c1sccc1C	35.1
C=C1C(=O)[C@]23[C@H](O)[C@H]1CC[C@@H]2[C@@]12CO[C@]3(O)C[C@@H]1C(C)(C)CC[C@@H]2O	98.2
Cc1coc2c1C(=O)C(=O)c1c-2ccc2c(C)cccc12	27

Series 2
Target: Replicase polyprotein 1ab, polymerase (rep, Severe acute respiratory syndrome coronavirus 2, UniProt P0DTD1)
Effect on: enzyme activity
Action: inhibitor
Tested at: 20 µM
Structure (SMILES)	inhibition [%]
CC(C)[C@@H]1CC[C@@H](C)C[C@@H]1P(=O)(c1ccccc1)c1ccccc1	-7.42
CCn1ccnc1CC1COc2ccccc2O1 (stereo not shown)	3.36
CC[C@@H](CO)NC(=O)[C@@H]1C=C2c3cccc4c3c(cn4C)C[C@H]2N(C)C1	6.71
Cc1ncc([N+](=O)[O-])n1CCO	12.5
COc1cc2c(NC3CCN(C4CCCCC4)CC3)nc(N3CCCN(C(C)C)CC3)nc2cc1OCCCN1CCCCC1	9.53
CCCC(C)C1(CC)C(=O)NC(=O)NC1=O (stereo not shown)	0.99
CN1CCN(c2c(F)cc3c(=O)c(C(=O)O)cn(CCF)c3c2F)CC1	1.75
c1ccc(C2(c3ccccc3)CC2C2=NCCN2)cc1 (stereo not shown)	3.66
CC(C)(CCCCCC(O)CCCCCC(C)(C)C(=O)O)C(=O)O	-3.68
Cc1cc(C(C)(C)C)cc(C)c1CC1=NCCN1	-0.06
O=C(O)c1ccc(Nc2ncc3c(n2)-c2ccc(Cl)cc2C(c2c(F)cccc2F)=NC3)cc1	4.8
COc1ccc2c(c1)C=C1Cn3c-2c(C2CCCCC2)c2ccc(cc23)C(=O)NS(=O)(=O)N(C)CCOCCN(C)C1=O	-1.97
Cc1c(Cn2c(C)nc3c(C(=O)O)cc(N4CCOCC4)cc32)cccc1C(F)(F)F	-1.51
CC1CCc2cc(F)cc3c(=O)c(C(=O)O)cn1c23 (stereo not shown)	-2.83
COc1cc(-c2ccc(=O)[nH]n2)ccc1OC(F)F	-0.18
COC(=O)[C@H](CC(C)C)NC(=O)[C@@H](N)CC(C)C	-6.8
CC(C)OC(=O)C(C)(C)Oc1ccc(C(=O)c2ccc(Cl)cc2)cc1	2.26
CN1CCc2cc(Cl)c(O)cc2[C@@H](c2ccccc2)C1	1.13
O=c1c(-c2ccc(O)cc2)coc2cc(O)cc(O)c12	8.12

Series 3
Target: Sal-like protein 4, full length isoform A (SALL4, Homo sapiens, UniProt Q9UJQ4, residues 1-1053)
UniProt Q9UJQ4, sequence (whole entry, looked up): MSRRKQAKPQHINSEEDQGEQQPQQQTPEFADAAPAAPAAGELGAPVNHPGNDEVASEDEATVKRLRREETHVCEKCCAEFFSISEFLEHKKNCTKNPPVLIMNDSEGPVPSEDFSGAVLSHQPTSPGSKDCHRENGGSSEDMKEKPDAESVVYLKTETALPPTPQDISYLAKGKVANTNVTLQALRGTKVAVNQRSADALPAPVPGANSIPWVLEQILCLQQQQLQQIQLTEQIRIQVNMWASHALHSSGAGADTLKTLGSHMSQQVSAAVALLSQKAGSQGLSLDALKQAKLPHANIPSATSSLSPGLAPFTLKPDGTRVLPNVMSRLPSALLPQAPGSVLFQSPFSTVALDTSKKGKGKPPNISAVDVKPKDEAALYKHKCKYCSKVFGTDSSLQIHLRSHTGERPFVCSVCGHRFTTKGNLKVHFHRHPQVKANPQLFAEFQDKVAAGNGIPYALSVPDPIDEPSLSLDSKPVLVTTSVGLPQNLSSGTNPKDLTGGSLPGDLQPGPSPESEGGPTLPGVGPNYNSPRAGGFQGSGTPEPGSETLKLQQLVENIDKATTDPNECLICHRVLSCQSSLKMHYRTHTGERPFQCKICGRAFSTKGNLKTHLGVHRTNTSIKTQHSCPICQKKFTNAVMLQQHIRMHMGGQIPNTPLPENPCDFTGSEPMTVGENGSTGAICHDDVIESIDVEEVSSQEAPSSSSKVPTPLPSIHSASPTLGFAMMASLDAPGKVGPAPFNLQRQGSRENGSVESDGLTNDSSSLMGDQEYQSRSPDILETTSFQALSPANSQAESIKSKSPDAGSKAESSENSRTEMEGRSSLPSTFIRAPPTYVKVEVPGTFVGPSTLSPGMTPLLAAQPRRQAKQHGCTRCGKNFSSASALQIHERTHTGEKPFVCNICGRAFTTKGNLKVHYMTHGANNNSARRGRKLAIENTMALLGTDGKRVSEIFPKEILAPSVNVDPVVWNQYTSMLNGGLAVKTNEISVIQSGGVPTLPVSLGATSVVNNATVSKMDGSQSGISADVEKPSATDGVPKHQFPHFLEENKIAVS
Technique: universal PBM
Form: double-stranded DNA, one strand shown
Sample: in vitro
Tested at: 600 nM
Notes: 8-mer, flanks averaged, mean of replicates
Reading: higher = stronger binding
Strand	E-score
CTCGAGAG	-0.218
CGACATTA	0.197
CATACGCC	0.103
AACCAAAC	-0.146
GCCAGGTA	-0.257
GGCAGTCA	-0.0287
AGCAGGGA	-0.194
AGTACACC	-0.0145

Series 4
Cell line: HEK-293T-ACE2
Tested at: concentration not given
Reference: vehicle
SMILES	cell number
Cc1nc2c([nH]1)-c1ccccc1N(C(=O)c1ccc(NC(=O)c3ccccc3-c3ccccc3)cc1)CC2.Cl	99.3%
CCN[C@@H]1C[C@H](N)[C@@H](O[C@H]2OC(CN)=CC[C@H]2N)[C@H](O)[C@H]1O[C@H]1OC[C@](C)(O)[C@H](NC)[C@H]1O.CCN[C@@H]1C[C@H](N)[C@@H](O[C@H]2OC(CN)=CC[C@H]2N)[C@H](O)[C@H]1O[C@H]1OC[C@](C)(O)[C@H](NC)[C@H]1O.O=S(=O)(O)O.O=S(=O)(O)O.O=S(=O)(O)O.O=S(=O)(O)O.O=S(=O)(O)O	102%
CCC[C@H](NC(=O)[C@@H]1[C@H]2CCC[C@H]2CN1C(=O)[C@@H](NC(=O)[C@@H](NC(=O)c1cnccn1)C1CCCCC1)C(C)(C)C)C(=O)C(=O)NC1CC1	101%
Cl.O=C1[C@@H]2[C@H]3CC[C@H](C3)[C@@H]2C(=O)N1C[C@@H]1CCCC[C@H]1CN1CCN(c2nsc3ccccc23)CC1	96.9%

Series 5
Target: Eukaryotic initiation factor 4A-I (EIF4A1, Homo sapiens, UniProt P60842, residues 1-406, full length assumed)
UniProt P60842, sequence (whole entry, looked up): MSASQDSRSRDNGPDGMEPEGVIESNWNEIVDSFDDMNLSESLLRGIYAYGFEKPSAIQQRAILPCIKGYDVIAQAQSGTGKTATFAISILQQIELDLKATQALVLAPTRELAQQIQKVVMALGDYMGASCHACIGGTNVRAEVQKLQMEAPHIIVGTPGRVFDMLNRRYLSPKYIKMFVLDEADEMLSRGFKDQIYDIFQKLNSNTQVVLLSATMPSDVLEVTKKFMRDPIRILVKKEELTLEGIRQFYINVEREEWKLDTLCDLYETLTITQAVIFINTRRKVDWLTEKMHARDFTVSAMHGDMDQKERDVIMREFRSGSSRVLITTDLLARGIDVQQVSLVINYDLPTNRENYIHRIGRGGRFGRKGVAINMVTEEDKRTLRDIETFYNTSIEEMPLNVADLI
Technique: RNA Bind-n-Seq
Form: RNA
Sample: in vitro
Tested at: 90 pmol
Notes: 4-mer, random 30-nt RNA, single round
Added: 3 µM iPr-DMDA-PatA, 2 mM ADP, 2 mM phosphate
Reference: input library
Reading: higher = stronger binding
Strand	4-mer enrichment [fold]
AUAU	1.35
UAUC	1.13
GAUC	1.1
GACA	1.14
GCAC	0.831
CUAC	1.01

For quick reference, copied from above (series 2):
Structure (SMILES)	inhibition [%]
COc1cc2c(NC3CCN(C4CCCCC4)CC3)nc(N3CCCN(C(C)C)CC3)nc2cc1OCCCN1CCCCC1	9.53
Cc1ncc([N+](=O)[O-])n1CCO	12.5
CCCC(C)C1(CC)C(=O)NC(=O)NC1=O (stereo not shown)	0.99
